{"data": "Published values gathered from unrelated publications", "BTK": "Tyrosine-protein kinase BTK (BTK, Homo sapiens, UniProt Q06187)", "BTK R28H": "Tyrosine-protein kinase BTK (BTK, Homo sapiens, UniProt Q06187, R28H)", "note": "Compare with care: the assays were run in different laboratories.", "chain of UniProt Q06187 (whole entry, unmodified, looked up)": "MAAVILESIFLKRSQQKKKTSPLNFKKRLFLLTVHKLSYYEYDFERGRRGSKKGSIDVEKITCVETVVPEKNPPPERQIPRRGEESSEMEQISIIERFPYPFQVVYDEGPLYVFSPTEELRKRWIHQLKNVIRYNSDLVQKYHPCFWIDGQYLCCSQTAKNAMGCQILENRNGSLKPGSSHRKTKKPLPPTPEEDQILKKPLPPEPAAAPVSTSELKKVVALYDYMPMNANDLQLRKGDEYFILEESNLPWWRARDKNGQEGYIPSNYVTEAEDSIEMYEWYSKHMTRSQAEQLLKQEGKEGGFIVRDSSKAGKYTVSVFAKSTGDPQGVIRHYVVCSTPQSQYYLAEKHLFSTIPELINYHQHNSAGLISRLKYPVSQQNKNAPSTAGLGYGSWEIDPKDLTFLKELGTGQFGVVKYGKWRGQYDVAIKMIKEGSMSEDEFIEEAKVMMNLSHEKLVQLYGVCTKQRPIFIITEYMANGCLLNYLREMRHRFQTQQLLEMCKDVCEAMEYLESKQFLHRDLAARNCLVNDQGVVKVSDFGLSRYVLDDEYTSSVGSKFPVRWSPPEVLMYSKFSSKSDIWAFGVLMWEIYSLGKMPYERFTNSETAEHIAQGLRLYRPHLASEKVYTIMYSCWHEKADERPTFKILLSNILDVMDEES"}
{"Compound": "Nc1ccc(/C=C/C(=O)N2CCc3c(oc4c(-c5ccc(F)cc5)cc(-c5ccc(C(=O)N6CCC(F)(F)CC6)cn5)cc34)C2)cn1", "target": "BTK", "assay": "binding, competition with immobilised ligand", "setting": "1 µM", "endpoint": "remaining binding", "value": "100%"}
{"Compound": "CN(C)[C@H]1C[C@@]23CC[C@@]4(O2)C(=CC[C@]2(C)[C@@H](c5ccc6ccncc6c5)CC[C@H]24)C=C3[C@@H](O)[C@@H]1O", "target": "BTK", "assay": "ATP probe labelling, inhibitor, KiNativ profiling", "setting": "0.1 µM", "endpoint": "inhibition", "value": "-4.2%"}
{"Compound": "C[C@H](NCc1ccc(-c2ccc(C(F)(F)F)cc2)cc1)C(N)=O", "target": "BTK", "assay": "cell-free assay, competition with immobilised ligand", "setting": "1 µM", "endpoint": "inhibition", "value": "5%"}
{"Compound": "N[C@H](C(=O)N1CCCC1)C1CCN(c2nccc3c(-c4ncc(Cl)cc4Cl)cccc23)CC1", "target": "BTK", "assay": "kinase activity, inhibitor", "setting": "10 µM, added: ATP 1 mM", "endpoint": "inhibition", "value": "0.2%"}
{"Compound": "CS(C)(=O)=Nc1ccc(-c2ccc(-c3nc4cc(O[C@@H]5CO[C@H]6[C@@H]5OC[C@H]6O)[nH]c4cc3F)cc2)cc1", "target": "BTK R28H", "assay": "enzyme activity, inhibitor", "setting": "10 µM", "endpoint": "inhibition", "value": "1%"}
{"Compound": "O=C1NC(=O)c2c1c1cc(F)c[n+]3c1c1c2c2cc(O)ccc2[n]1[Ru-4]312([N]=C=S)[S+]3CC[S+]1CC[S+]2CC3 (stereo not drawn)", "target": "BTK R28H", "assay": "enzyme activity", "setting": "100 nM, human enzyme, added: 10 µM ATP", "how to read": "relative to: untreated", "endpoint": "remaining activity", "value": "111%"}
{"Compound": "CC(C)[C@H]1NC(=O)C[C@H]2/C=C/CCSSC[C@@H](NC1=O)C(=O)N[C@H](Cc1cccc3ccccc13)C(=O)NCC(=O)O2", "target": "BTK", "assay": "enzyme activity, inhibitor", "setting": "10 µM", "endpoint": "inhibition", "value": "-10.8%"}
{"Compound": "O=C(CN1CN(c2ccccc2)C2(CCN(C(=O)c3cnc4[nH]ncc4c3)CC2)C1=O)NCC(F)(F)F", "target": "BTK", "assay": "inhibitor", "setting": "concentration not given", "endpoint": "inhibition", "value": "< 50%"}
{"Compound": "CCOC(=O)[C@@H]1Cc2c(cc([N+](=O)[O-])cc2[N+](=O)[O-])[C@H](O)[C@]12C(=O)Nc1ccc(Br)cc12", "target": "BTK", "assay": "KINOMEscan", "setting": "100 nM", "how to read": "relative to: DMSO control", "endpoint": "remaining binding", "value": "74%"}
{"note": "Some of these lines once more:"}
{"Compound": "Nc1ccc(/C=C/C(=O)N2CCc3c(oc4c(-c5ccc(F)cc5)cc(-c5ccc(C(=O)N6CCC(F)(F)CC6)cn5)cc34)C2)cn1", "target": "BTK", "assay": "binding, competition with immobilised ligand", "setting": "1 µM", "endpoint": "remaining binding", "value": "100%"}
